Results from different studies.
Compare with care: the assays were run in different laboratories.
Target: Carbonic anhydrase 2 (CA2, Homo sapiens, UniProt P00918)

SMILES | effect on | action | technique | quantity | result
O=C1CCCCO1 | enzyme activity | inhibitor | stopped-flow | Ki | 62.2 µM
NS(=O)(=O)c1nnc(N2C(=O)c3cccc4c(N5CCOCC5)ccc(c34)C2=O)s1 | binding |  |  | Kd | 0.17 µM
CC[C@H](C)[C@H](N)C(=O)NS(=O)(=O)CC(=O)N[C@]1(C(=O)O)[C@@H]2CN(C)C=C(C(N)=O)[C@@H]2C[C@@H]1O | enzyme activity | inhibitor | absorbance | IC50 | 1 µM
Cc1cc(=O)oc2cc(OCCCCCCSC#N)ccc12 | enzyme activity | inhibitor | stopped-flow | Ki | > 100 µM
CN1C=C(C(N)=O)[C@@H]2C[C@H](O)[C@@](NC(=O)CS(N)(=O)=O)(C(=O)O)[C@@H]2C1 | enzyme activity | inhibitor | absorbance | IC50 | 10 µM
N#C[Se]CCCCCCOc1ccc2c(-c3ccccc3)cc(=O)oc2c1 | enzyme activity | inhibitor | stopped-flow | Ki | > 100 µM
CN(C)c1ccc2c3c(cccc13)C(=O)N(CCc1ccc(S(N)(=O)=O)cc1)C2=O | binding |  |  | Kd | 0.14 µM
CCCCCCC(=O)N[C@H]1CCOC1=O | enzyme activity | inhibitor | stopped-flow | Ki | 76.3 µM

Some of these lines once more:
SMILES | effect on | action | technique | quantity | result
CCCCCCC(=O)N[C@H]1CCOC1=O | enzyme activity | inhibitor | stopped-flow | Ki | 76.3 µM
